Measured values gathered from unrelated publications.
Every numbered part comes from another study and shows a few of its results, in no order. Numbers after ± are the reported error.
Sequence of UniProt O43318 (whole entry, looked up): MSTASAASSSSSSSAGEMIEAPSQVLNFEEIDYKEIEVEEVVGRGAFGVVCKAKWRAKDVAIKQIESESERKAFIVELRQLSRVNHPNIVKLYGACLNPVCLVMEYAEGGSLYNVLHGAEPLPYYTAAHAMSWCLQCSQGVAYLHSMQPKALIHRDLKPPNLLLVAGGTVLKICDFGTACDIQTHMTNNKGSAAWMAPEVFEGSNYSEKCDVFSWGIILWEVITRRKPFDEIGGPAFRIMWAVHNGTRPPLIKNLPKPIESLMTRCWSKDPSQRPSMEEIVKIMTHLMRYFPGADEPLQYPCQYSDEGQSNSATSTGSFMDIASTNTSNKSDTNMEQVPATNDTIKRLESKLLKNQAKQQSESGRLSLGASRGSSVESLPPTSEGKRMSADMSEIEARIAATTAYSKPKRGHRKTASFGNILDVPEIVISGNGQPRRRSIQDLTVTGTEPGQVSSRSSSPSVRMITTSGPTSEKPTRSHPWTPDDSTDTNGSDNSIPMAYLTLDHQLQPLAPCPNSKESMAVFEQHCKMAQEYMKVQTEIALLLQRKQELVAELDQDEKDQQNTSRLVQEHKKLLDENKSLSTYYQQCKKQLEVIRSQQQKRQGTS
Sequence of UniProt P51817 (whole entry, looked up): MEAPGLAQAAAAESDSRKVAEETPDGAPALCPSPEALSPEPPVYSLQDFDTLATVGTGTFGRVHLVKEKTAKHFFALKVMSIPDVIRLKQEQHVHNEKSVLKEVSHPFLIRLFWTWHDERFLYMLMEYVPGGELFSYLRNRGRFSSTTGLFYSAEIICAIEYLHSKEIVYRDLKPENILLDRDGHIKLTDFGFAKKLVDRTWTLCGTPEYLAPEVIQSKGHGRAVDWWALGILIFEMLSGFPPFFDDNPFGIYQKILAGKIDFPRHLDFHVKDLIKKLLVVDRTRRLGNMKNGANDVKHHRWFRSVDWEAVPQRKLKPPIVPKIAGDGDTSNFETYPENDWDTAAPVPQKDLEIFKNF
Sequence of UniProt Q04771 (whole entry, looked up): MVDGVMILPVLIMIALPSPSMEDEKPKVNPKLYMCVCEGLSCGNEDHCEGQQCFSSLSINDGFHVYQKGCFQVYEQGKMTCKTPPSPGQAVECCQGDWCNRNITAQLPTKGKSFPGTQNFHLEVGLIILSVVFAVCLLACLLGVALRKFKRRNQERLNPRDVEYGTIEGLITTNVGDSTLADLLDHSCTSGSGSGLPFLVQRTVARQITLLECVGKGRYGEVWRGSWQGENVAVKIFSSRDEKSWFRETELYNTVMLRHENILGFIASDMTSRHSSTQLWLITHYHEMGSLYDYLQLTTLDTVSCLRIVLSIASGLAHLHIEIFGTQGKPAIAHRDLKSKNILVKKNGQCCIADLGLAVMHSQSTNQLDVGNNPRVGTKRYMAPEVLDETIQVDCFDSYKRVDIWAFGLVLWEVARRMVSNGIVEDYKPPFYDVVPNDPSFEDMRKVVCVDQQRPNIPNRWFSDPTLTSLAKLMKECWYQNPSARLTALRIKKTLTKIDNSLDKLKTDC
Sequence of UniProt P35590 (whole entry, looked up): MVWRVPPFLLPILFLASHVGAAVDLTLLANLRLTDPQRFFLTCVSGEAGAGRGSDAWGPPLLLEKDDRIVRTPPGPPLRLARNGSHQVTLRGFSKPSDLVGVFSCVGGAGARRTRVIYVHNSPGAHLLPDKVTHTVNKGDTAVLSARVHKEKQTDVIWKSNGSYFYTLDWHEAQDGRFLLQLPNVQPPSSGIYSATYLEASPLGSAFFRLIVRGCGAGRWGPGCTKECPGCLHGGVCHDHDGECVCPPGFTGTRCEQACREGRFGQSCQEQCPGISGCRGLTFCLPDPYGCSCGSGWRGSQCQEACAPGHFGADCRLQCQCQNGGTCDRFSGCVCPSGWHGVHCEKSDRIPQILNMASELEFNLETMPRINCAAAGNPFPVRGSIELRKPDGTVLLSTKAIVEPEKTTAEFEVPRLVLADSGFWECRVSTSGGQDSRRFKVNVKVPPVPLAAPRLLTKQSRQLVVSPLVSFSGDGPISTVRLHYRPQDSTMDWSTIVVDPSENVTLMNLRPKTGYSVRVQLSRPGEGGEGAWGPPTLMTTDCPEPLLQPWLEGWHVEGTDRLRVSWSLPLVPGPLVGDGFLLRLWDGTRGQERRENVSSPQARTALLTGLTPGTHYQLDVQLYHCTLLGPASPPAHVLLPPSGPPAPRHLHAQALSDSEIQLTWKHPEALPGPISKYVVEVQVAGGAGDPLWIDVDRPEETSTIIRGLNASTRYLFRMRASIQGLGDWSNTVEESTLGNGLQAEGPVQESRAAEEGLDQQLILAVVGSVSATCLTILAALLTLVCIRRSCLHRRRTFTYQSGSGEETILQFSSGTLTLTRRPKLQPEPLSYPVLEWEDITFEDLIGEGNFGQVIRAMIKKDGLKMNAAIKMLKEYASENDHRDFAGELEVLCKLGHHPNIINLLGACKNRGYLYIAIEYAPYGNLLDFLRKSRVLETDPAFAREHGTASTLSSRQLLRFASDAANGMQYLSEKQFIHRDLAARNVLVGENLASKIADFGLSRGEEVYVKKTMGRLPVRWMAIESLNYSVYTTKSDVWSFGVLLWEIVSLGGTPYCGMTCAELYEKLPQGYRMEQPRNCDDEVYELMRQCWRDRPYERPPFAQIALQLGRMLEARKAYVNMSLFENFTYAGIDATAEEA
Sequence of UniProt Q59H18 (whole entry, looked up): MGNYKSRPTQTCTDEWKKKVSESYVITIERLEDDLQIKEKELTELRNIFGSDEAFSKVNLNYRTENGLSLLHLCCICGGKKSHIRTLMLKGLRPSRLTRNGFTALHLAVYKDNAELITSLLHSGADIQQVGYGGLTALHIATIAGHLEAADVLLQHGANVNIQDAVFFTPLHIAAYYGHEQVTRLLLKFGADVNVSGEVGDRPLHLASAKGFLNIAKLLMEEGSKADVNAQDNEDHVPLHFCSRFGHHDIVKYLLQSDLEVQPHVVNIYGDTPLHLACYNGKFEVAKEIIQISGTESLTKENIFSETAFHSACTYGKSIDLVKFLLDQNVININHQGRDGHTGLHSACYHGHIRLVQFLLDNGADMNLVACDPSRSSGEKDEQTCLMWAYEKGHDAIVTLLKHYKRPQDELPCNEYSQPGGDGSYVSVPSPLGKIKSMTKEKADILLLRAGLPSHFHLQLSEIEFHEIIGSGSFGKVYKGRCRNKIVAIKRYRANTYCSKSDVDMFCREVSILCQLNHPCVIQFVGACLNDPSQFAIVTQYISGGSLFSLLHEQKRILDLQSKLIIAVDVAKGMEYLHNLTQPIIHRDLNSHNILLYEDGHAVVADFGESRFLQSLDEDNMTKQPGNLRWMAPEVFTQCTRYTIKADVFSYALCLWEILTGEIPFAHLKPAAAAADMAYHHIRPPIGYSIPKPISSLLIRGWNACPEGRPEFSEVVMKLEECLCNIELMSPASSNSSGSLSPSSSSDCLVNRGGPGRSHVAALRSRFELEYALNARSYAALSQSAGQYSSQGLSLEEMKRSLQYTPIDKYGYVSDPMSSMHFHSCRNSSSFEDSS
Sequence of UniProt Q9Y2H1 (whole entry, looked up): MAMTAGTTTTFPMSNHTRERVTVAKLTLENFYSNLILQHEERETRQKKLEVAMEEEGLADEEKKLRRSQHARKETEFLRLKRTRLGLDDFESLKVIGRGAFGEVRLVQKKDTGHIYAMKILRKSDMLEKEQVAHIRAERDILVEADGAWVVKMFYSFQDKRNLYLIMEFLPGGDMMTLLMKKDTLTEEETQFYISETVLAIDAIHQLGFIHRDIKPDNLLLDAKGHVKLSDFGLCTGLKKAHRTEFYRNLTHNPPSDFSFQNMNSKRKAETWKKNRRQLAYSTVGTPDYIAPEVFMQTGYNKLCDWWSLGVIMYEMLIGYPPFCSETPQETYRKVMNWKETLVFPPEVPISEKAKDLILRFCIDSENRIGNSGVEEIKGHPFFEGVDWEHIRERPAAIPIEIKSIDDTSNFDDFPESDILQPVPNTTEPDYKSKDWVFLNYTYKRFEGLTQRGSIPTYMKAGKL

Sample 1
Species: mouse
Matrix: microsomes or S9
Concentration: 2 µM
Time: 0.5 h
SMILES	remaining compound
CC(C)(C)c1csc(NNC(=O)c2ccc(Br)cc2)n1	< 1%
Cc1cccc(NC(=O)Nc2ccc(Nc3ccc(-n4cccn4)nn3)cc2)c1	42.7%
CCc1nc(-c2cccc(-c3noc(-c4sc(C)nc4C)n3)c2)cs1	57.4%
O=C(O)Cn1cnc(S(=O)(=O)N2CCCC2)c1	79.1%
COc1cc(OC)cc(-n2c3c(c4nc(OC)ccc42)C(C)CCC3)c1 (centres unmarked)	52%
COCCn1c(C(=O)OC)cc2c(=O)n(C)c(=O)n(C)c21	0.184%
Cc1nn(-c2ccccc2)c(N2CCCCC2)c1C=C(c1nc2ccccc2s1)c1nc2ccccc2s1	15.2%
CCOC(=O)C(CCC1(Cc2cccs2)C(=O)OC(C)(C)OC1=O)(NC(C)=O)C(=O)OCC	1.06%
CC(C)CCn1cc(C(=O)N2CCN(c3ccccn3)CC2)c2ccccc2c1=O	< 1%
COc1ccc(C(=O)N2CCC(n3c(C)cnc3C3CCC3)C2)cc1 (centres unmarked)	41.3%
Cc1cnn(CC2CN(c3nccn4nc(C)cc34)CCO2)c1 (centres unmarked)	0.111%

Sample 2
Cell line: HaCaT
Concentration: 100 µM
Time: 18 h
Compound	viability
CC(C)NCC(O)COc1cccc2[nH]ccc12 (centres unmarked)	110%
CCOC(=O)C1=C(C)NC(C)=C(C(=O)OC)C1c1cccc([N+](=O)[O-])c1 (centres unmarked)	31.4%
CCCS(=O)(=O)Nc1ccc(F)c(C(=O)c2c[nH]c3ncc(-c4ccc(Cl)cc4)cc23)c1F	55.5%
COc1cccc2c1C(=O)c1c(O)c3c(c(O)c1C2=O)C[C@@](O)(C(C)=O)C[C@@H]3O[C@H]1C[C@H](N)[C@H](O)[C@H](C)O1	31%
COc1cc2nc(N3CCN(C(=O)C4COc5ccccc5O4)CC3)nc(N)c2cc1OC (centres unmarked)	16.5%
COc1cc2c(Oc3ccc4[nH]c(C)cc4c3F)ncnc2cc1OCCCN1CCCC1	18.4%
CC1(C)S[C@@H]2[C@H](NC(=O)[C@H](N)c3ccccc3)C(=O)N2[C@H]1C(=O)OCOC(=O)[C@@H]1N2C(=O)C[C@H]2S(=O)(=O)C1(C)C	90.9%
CC(=O)Nc1cccc(-n2c(=O)n(C3CC3)c(=O)c3c(Nc4ccc(I)cc4F)n(C)c(=O)c(C)c32)c1	74.4%
CCCc1nc(C)c2c(=O)[nH]c(-c3cc(S(=O)(=O)N4CCN(CC)CC4)ccc3OCC)nn12	68.5%
CC(CCc1ccccc1)NCC(O)c1ccc(O)c(C(N)=O)c1 (centres unmarked)	113%
O=c1cc[nH]c(=S)[nH]1	98.1%
CC1CCc2cc(F)cc3c(=O)c(C(=O)O)cn1c23 (centres unmarked)	92.3%
CCCCS(=O)(=O)N[C@@H](Cc1ccc(OCCCCC2CCNCC2)cc1)C(=O)O	99.8%

Sample 3
Structure (SMILES): Nc1c(C(=O)NCc2ccc(C(=O)NCCCC3CCCCC3)cc2)cnn1-c1ccccc1
Technique: competition with immobilised ligand
target	assay	conditions	remaining binding
TNNI3K (Homo sapiens, UniProt Q59H18)	cell-free assay	0.1 µM	100%
Tyrosine-protein kinase ABL1, non-phosphorylated (ABL1, Homo sapiens, UniProt P00519, F317I)	binding	0.1 µM	92%
KIT (Homo sapiens, UniProt P10721)	cell-free assay	0.1 µM	70%
ROCK1 (Homo sapiens, UniProt Q13464)	cell-free assay	0.1 µM	100%
STK38L (Homo sapiens, UniProt Q9Y2H1)	binding	1 µM	44%
EPHA5 (Homo sapiens, UniProt P54756)	cell-free assay	0.1 µM	100%
TAOK3 (Homo sapiens, UniProt Q9H2K8)	cell-free assay	0.1 µM	96%
PRKX (Homo sapiens, UniProt P51817)	cell-free assay	0.1 µM	87%
MAP3K7 (Homo sapiens, UniProt O43318)	cell-free assay	0.1 µM	100%
CDK2 (Homo sapiens, UniProt P24941)	cell-free assay	0.1 µM	96%
BRSK2 (Homo sapiens, UniProt Q8IWQ3)	cell-free assay	0.1 µM	79%
MAP2K6 (Homo sapiens, UniProt P52564)	cell-free assay	0.1 µM	79%
ACVR1 (Homo sapiens, UniProt Q04771)	cell-free assay	0.1 µM	100%
NIM1K (Homo sapiens, UniProt Q8IY84)	cell-free assay	0.1 µM	81%
TIE1 (Homo sapiens, UniProt P35590)	cell-free assay	0.1 µM	100%
GSK3B (Homo sapiens, UniProt P49841)	cell-free assay	0.1 µM	100%

Sample 4
SMILES: C=CCc1ccc(O)c(-c2ccc(O)c(CC=C)c2)c1
Read-out: chloride current
Technique: whole-cell voltage clamp
ANO1 del476-501/F807Y: Anoctamin-1 (ANO1, Homo sapiens, UniProt Q5XXA6, del476-501/F807Y)
Sequence of UniProt Q5XXA6 (whole entry, unmodified, looked up): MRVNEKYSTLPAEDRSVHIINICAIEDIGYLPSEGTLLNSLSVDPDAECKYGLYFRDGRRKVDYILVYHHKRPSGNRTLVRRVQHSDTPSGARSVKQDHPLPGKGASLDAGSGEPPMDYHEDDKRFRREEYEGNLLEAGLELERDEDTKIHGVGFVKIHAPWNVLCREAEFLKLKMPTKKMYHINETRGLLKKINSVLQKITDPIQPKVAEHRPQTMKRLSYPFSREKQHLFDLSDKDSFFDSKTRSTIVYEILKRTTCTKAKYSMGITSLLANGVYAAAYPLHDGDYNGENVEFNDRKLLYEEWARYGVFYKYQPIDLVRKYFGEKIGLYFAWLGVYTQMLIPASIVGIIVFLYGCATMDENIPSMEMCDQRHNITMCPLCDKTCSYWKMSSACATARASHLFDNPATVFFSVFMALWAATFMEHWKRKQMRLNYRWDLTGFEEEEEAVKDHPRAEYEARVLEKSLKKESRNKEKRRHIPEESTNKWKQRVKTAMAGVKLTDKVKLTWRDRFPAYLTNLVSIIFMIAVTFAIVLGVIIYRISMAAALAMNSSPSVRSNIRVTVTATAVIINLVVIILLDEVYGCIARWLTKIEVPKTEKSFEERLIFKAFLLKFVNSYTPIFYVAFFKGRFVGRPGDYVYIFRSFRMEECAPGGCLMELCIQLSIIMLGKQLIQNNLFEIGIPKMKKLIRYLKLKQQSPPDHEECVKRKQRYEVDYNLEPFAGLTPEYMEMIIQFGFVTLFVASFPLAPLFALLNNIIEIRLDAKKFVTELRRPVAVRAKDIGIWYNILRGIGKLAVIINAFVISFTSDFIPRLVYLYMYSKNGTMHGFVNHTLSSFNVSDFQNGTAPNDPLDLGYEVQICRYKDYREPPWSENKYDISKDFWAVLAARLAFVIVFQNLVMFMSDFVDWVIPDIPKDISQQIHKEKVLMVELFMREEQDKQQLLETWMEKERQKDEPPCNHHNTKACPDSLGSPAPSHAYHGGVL
ANO1 del476-501/F803A: Anoctamin-1 (ANO1, Homo sapiens, UniProt Q5XXA6, del476-501/F803A)
target	assay	conditions	IC50 [µM]
Anoctamin-1 (ANO1, Homo sapiens, UniProt Q5XXA6, del476-501/R631D)	inhibitor	R605D mutant at -60 mV	18.7
Anoctamin-1 (ANO1, Homo sapiens, UniProt Q5XXA6, del476-501/R631K)	inhibitor	R605K mutant at -40 mV	9.38
Anoctamin-1 (ANO1, Homo sapiens, UniProt Q5XXA6, del476-501/F627A)	–	membrane voltage 100 mV	7.55
ANO1 del476-501/F807Y	inhibitor	80 mV holding voltage	11.8
Anoctamin-1 (ANO1, Homo sapiens, UniProt Q5XXA6, del476-501/R561A)	–	membrane voltage 40 mV	6.41
Anoctamin-1 (ANO1, Homo sapiens, UniProt Q5XXA6, del476-501/M544A)	–	membrane voltage -80 mV	4.13
Anoctamin-1 (ANO1, Homo sapiens, UniProt Q5XXA6, del476-501/F803I)	inhibitor	60 mV holding voltage	7.05
Anoctamin-1 (ANO1, Homo sapiens, UniProt Q5XXA6, del476-501)	inhibitor	-40 mV voltage, added: 300 nM Ca2+	2.8
ANO1 del476-501/F803A	–	membrane voltage -80 mV	20.7
ANO1 del476-501/F803A	inhibitor	mutant F777A at 100 mV, added: 300 nM Ca2+	14.6 ± 0.6
Anoctamin-1 (ANO1, Homo sapiens, UniProt Q5XXA6, del476-501/F628I)	inhibitor	F602I mutant at 20 mV	9.25
ANO1 del476-501/F807Y	inhibitor	100 mV holding voltage	13.4
Anoctamin-1 (ANO1, Homo sapiens, UniProt Q5XXA6, del476-501/F807W)	inhibitor	100 mV holding voltage	12.1

For quick reference, copied from above (sample 1):
SMILES	remaining compound
CCc1nc(-c2cccc(-c3noc(-c4sc(C)nc4C)n3)c2)cs1	57.4%
O=C(O)Cn1cnc(S(=O)(=O)N2CCCC2)c1	79.1%
COc1cc(OC)cc(-n2c3c(c4nc(OC)ccc42)C(C)CCC3)c1 (centres unmarked)	52%
COCCn1c(C(=O)OC)cc2c(=O)n(C)c(=O)n(C)c21	0.184%
Cc1nn(-c2ccccc2)c(N2CCCCC2)c1C=C(c1nc2ccccc2s1)c1nc2ccccc2s1	15.2%
